Measurements of several laboratories.
Numbered parts are unrelated; each lists some results of a single study.

Block 1 — method: protein-binding microarray; form: double-stranded DNA, one strand shown; medium: in vitro; tested at: 250 nM; notes: 60-bp whole probe; together with: salmon DNA 0.4 mg/ml; baseline: random background probes; direction: higher = stronger binding; all sequences stand within: GCCTAGCAC … GTCTTGATTCGCTTGACGCTGCTG
Target: Interferon regulatory factor 7, full length, phosphomimetic (IRF7, Homo sapiens, UniProt Q92985, residues 1-503, S101K/S471D/S472D/S475D/S476D/S477D/S483D/S484D/S487D)
Target sequence (chain): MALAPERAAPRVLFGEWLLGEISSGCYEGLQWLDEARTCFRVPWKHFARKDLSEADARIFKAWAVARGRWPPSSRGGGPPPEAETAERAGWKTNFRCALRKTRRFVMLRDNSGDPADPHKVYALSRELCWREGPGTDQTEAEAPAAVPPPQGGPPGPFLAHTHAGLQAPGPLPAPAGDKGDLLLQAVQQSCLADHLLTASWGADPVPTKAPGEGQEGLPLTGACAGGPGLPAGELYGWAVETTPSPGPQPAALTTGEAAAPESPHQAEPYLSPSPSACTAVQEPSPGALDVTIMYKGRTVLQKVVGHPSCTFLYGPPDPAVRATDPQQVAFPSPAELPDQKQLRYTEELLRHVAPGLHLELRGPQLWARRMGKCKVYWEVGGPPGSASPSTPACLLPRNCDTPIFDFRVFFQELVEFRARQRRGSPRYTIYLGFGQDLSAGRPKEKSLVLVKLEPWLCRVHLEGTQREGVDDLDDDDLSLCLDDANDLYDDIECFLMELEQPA
Oligonucleotide	log fluorescence
GACGGTATCGACACGGGGGACGTGCTA	0.356 z-score
GACGGTTTCCTTTCCCTGGCGTGCTAG	4.94 z-score
TTAAATATCGGGTTTCGATTAGTGCTA	7.18 z-score
TTAGATATCGGGTATCGATTTGTGCTA	2.85 z-score
TGGAGAGCATATTCTGTGACGTGCTAG	-1.08 z-score
TTAGGTCTCGTTATCCTTTAGTGCTAG	3.73 z-score
TTAGGTATCGGTCTCGGTTGGTGCTAG	2.6 z-score
CCCATTCTCAGCCCTGCGCATGTGCTA	0.607 z-score
TTAGATATCTGGTATCGATTAGTGCTA	0.908 z-score
GACGAACTAAGACTGGAGACGTGCTAG	0.209 z-score
TCACCTATCAGTTTAATACTGTGCTAG	0.264 z-score
GACGATATTGGGACTGGAGACGTGCTA	-0.206 z-score
TTAGGTATCGGACTGGCTTAGTGCTAG	-0.193 z-score
TTTGGACTGGGGTATCGGTTAGTGCTA	0.245 z-score
TTAGATTTCAGTTCGGATTAGTGCTAG	1.08 z-score
TCAATAATTTTTTTCTAACTGTGCTAG	0.38 z-score
GATGATATCAGACTGGAGACGTGCTAG	-0.786 z-score
GACGGTTTCGGACTAGGGACGTGCTAG	3.98 z-score
ACAGATGAGGAACCAAGGCCGTGCTAG	-0.16 z-score
GACGGTTTCCTTCTCCTGTCGTGCTAG	3.18 z-score
GACGATCTCAGTTTCGAGAGGTGCTAG	1.87 z-score
TTAGGTAGCGACACTGGGTTAGTGCTA	-0.957 z-score
CCCAGACTTGATTTTGGTCTGTGCTAG	-0.0434 z-score
GGAGTGGGAAGCTTCGCTCCGTGCTAG	-0.568 z-score

Block 2 — method: competition protein-binding microarray; form: double-stranded DNA, one strand shown; medium: in vitro; tested at: 2 µM; together with: Cbf1 competitor, 0.05 µM; direction: higher = stronger binding; all sequences stand within: … GTCTTGATTCGCTTGACGCTGCTG
Target: Phosphate system positive regulatory protein PHO4, full length, GST-tagged (PHO4, Saccharomyces cerevisiae, UniProt P07270, residues 1-312)
Notes: whole 60-bp probe, lowest competitor level
Target sequence (chain): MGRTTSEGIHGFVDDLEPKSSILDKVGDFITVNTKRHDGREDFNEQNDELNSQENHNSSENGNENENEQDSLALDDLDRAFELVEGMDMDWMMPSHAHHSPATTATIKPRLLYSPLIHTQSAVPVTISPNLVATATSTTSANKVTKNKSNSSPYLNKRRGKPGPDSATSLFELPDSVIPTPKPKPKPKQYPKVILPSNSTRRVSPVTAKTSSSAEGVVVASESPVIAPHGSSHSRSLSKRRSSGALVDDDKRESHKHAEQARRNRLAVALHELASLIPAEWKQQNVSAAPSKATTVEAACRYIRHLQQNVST
Oligonucleotide	fluorescence intensity
GTAGCCCCACAATTTCACCTGCCATATAACATAAGG	5170 a.u.
CTAACGAAGGTTTGGGTTGTGGGTGACAAGCCAAGT	5390 a.u.
CGTTTCCTGGGAAATCACGTGCTCTGTCATTGAATT	17200 a.u.
CGGGGTTAAGTTTGTCACTCAACTTGCTTGCAGCAG	3170 a.u.
ACAAACAACTCACTCAACGTGTCCAAAACTTCGTAG	11900 a.u.
CGGGGTTAAGTTTGTTCAGTGGGTGGCTTGCAGCAG	4980 a.u.
AAATTACTAAGTTGCAGAGTGGGTGACGCCGTATGA	3790 a.u.
GTATTGGGGGCTCGGCACGGCGGCTTTAGAACGGCT	4860 a.u.
AAAGCGGTAATTTGGCCAGTGGGTGCAGATATCTAT	4040 a.u.
CTTCTGTAAATTTGTCACCCCACTTGACGCGCCCCG	3880 a.u.
CTAACGAAGGTTTGGCGAGTGGGTGACAAGCCAAGT	3950 a.u.
GATGGTATACGCCGTCACGTCTTTTACAATGAAGTG	5680 a.u.
GGATTTGGCTACGGCCACGTCCAATTTTCACTTGCT	3390 a.u.
CTTTATAAATCTCCACACGTTCCTGTTGGCGATGAT	15900 a.u.
ATTTTCCTGATCCCAAATGTGACGCCCAACATGGCA	4750 a.u.
CTAACGAAGGTTTGGAGGGTGGGTGACAAGCCAAGT	4370 a.u.
TGGCAATGGCCACTCACCGTGCCAGGCCTGCAAGTC	5420 a.u.

Block 3 — method: RNA Bind-n-Seq; form: RNA; medium: in vitro; tested at: not given; notes: RNA with constant flanks, ends assumed; baseline: input RNA pool; direction: higher = stronger binding
Target: RING finger protein unkempt homolog, zinc fingers 1-6, GST-SBP tag (UNK, Homo sapiens, UniProt Q9C0B0, residues 30-357)
Sequence of UniProt Q9C0B0 (30-357, looked up): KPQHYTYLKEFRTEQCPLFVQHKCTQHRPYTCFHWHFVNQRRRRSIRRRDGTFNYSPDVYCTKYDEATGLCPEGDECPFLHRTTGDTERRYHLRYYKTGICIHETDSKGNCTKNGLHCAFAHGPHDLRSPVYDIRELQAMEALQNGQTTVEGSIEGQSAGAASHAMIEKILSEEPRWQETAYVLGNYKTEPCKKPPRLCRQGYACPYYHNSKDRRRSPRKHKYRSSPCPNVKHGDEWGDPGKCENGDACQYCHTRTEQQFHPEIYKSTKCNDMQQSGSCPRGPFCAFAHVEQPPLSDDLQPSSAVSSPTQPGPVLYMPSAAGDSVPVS
All sequences stand within: GGGAGUUCUACAGUCCGACGAUC … CAACAGAGGAUUGAGCAUCA
Oligonucleotide	bound/input enrichment
GCAUGUUCUUAUGGACACUAUGAAGUUGCAGAACUUCUUGUCAAGCAUGGAGCAGCCGUCAAUGUCGCUGACUUGUGGAAGUUCACACCUUUACAUGAAGCUGCAGCAAAAGGAAAAUAU	0.154 ratio
UGGAACUGUUACUGCCUUGUCCUAGAGUUGUCCUGAUCAGGCUUGGGGCCUAGUUACAGAUCCGUCUUAAAGAAUUGCAUUAACUUAAAAAAAAUCAAACCUUGGCAAGAGCUAAAAUAA	0.45 ratio
ACCCUUUCUGGGGUCCAAGAAGAAUCUGCCCUUUGCUAUCUUCUCCAAGUUGAUGAGUUCCGAUUUUUAUUGGACUGUGGCUGGGAUGAGCACUUUUCUAUGGAUAUUAUUGAUUCCCUG	0.217 ratio
UGUUCCACUUUACUUUCCUUCCCGGGAAGUUUGUUUGGCUUUCUUCCAUUGUUGUUUUUGCCGCUUUUACUUCAGAAGUCUGUAUUUCCAUAAGCCAGAGGUUGUAAAGCCACUGAUGUU	0.569 ratio
AAGUGGUUGCUGCAGAAAGACAAAGACAGGAGGAAGGAGGUUAAACUGAACGAGCGCAUUACCGCUACUUCCCAAGGACUACUGAUUCGCUCUGUUCAAGAUUCUGACCAAGGACUCUAC	0.223 ratio
GCCAGCAAGCCUCAGAGUAUCCAAGAAUCAACUGGCAGUAUAAUUGAAGUUCUGAGUAAAACCGAUUCAGAAGGAGGAGUUUCAGCAAAUCAUACUAGUCGUGCAACGUCUACAGCAACA	0.262 ratio
GGAGGGUAUGGAGGCUAUGAUGACUAUGGAGGUUAUAAUGACGGGUAUGGUUUUGGGUCUGACCGAUUUGGAAGAGACCUAAACUACUGUUUCUCAGGAAUGUCUGAUCAUAGAUAUGGA	0.46 ratio
AUUUUGGAAUCAGUUCUUAUAAACAGCUCGAUUCAGUUUUAGCUAAAUUUAUAGUUCCGGCCGUAUGUUACAUUUGAAUUUUUGUCUUAAGAAAAGUUGACUGUUCAGAUAUUUUUCUAC	0.933 ratio
GCUUCCCUUUUUCUCCUCACAAGGAGGUGAGGCUGGGACCUCCGGGCCAGCUUCUCACCUCACCGGGUGUACCUUUCCCGGCUCCAGCAGCCAAUGUGCUUCGGAGCCACUCUCUGCAGA	0.237 ratio
AGGAAAAACCAAACUACAAAAAGAUUUAUUUAUAAUAUUCCACCUAAUAAUGAAACGAAUUCCGAAGAUUGCUCAGUAAUGCAGCCACCUGUUGCCUAUCCAGAAGAAAAUACACUACUC	1.96 ratio
GCAGCAGCCUCCACUGAGUUUGAGAAUGCUGAAUCUGAGGCUGAUUUCAGUAUCCAUUUCAACCGGUUCAACCCUGAUGGGGAAGAGGAGGAUGUUACAGUACACGAAUGACGUUUCCUU	0.0429 ratio

Block 4 — method: aptamer microarray, sandwich; form: DNA with 2'F-ANA; medium: in vitro; tested at: 200 nM; together with: Cy3 exosite-II aptamer, 400 nM; direction: higher = stronger binding; oligonucleotide: GGTTGGTGTGGTTGG
Target: Prothrombin, mature alpha-thrombin (F2, Homo sapiens, UniProt P00734)
Notes: whole 15-mer aptamer, many near background
Modification	mean fluorescence intensity
2'F-ANA at 3 12 14 15	861 a.u.
2'F-ANA at 2 3 4 7 8 9 10 11 12 13 14	165 a.u.
2'F-ANA at 2 4 6 8 10 11 12 13 14	96.4 a.u.
2'F-ANA at 1 4 5 6 7 11 14	52.5 a.u.
2'F-ANA at 1 3 5 6 7 10 11 14	47.5 a.u.
2'F-ANA at 1 4 6 7 10 11 12 13 14 15	48.7 a.u.
2'F-ANA at 2 5 6 9 11 13 15	52.8 a.u.
2'F-ANA at 1 3 4 8 10 11 12 13 15	65.6 a.u.
2'F-ANA at 4 6 7 8 10 11 13 15	67.7 a.u.
2'F-ANA at 7 10 13 14 15	122 a.u.
2'F-ANA at 1 7 9 11 13 15	118 a.u.
2'F-ANA at 1 7 12 13 14 15	76.1 a.u.
2'F-ANA at 2 3 4 7 8 9 10 15	260 a.u.
2'F-ANA at 1 2 4 5 11 14	42.9 a.u.
2'F-ANA at 1 3 4 5 7 9 11 13 14 15	58.8 a.u.
2'F-ANA at 1 2 4 6 7 8 9 11 12 14	59.4 a.u.
2'F-ANA at 1 3 5 6 8 9 12 13 14 15	46 a.u.
2'F-ANA at 1 2 6 8 11	144 a.u.
2'F-ANA at 1 8 9 10 15	58.6 a.u.
2'F-ANA at 1 2 6 9 11 12	226 a.u.
2'F-ANA at 1 7 8 9 10 11 13	62.5 a.u.

Block 5 — method: protein binding microarray; form: double-stranded DNA, one strand shown; medium: in vitro; tested at: not given; baseline: not given; direction: higher = stronger binding
Target: Histone acetyltransferase KAT6A, both winged helices, GST fusion (KAT6A, Homo sapiens, UniProt Q92794, residues 1-181)
Notes: 8-mer, flanks averaged, mean of 2 arrays, mostly near background
Residues (chain): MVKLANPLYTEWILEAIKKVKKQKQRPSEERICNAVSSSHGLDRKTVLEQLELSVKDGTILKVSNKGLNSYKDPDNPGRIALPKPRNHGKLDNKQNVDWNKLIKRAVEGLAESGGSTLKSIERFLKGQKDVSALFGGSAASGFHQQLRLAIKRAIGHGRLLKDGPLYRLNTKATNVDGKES
Oligonucleotide	E-score
CTACATAG	-0.283
CATGCGGG	0.179
TGTCTTAA	0.0116
TGGCTGAA	-0.0876
GCCGTCGC	0.382
ATTGGAAA	-0.158
CGGCTTCA	0.217
AAGCCGAG	0.0559
CAATCGAC	-0.0192
ATGCATCC	-0.132
GCGTGAAA	0.12
ACTCGATC	-0.051
CGTAACCC	0.248
AGGCCATC	-0.0659
GTCCTTGA	-0.0519
GTTAACGA	-0.011
CACTCGTA	-0.076
GGAGTAAA	-0.167
AGTGGGTC	-0.0287
